Values quoted from earlier work as cited in several papers.
Each line is one published result; not all experiments were run side by side. ± marks the error that the study gave.
Sequence of UniProt Q96BR1 (whole entry, looked up): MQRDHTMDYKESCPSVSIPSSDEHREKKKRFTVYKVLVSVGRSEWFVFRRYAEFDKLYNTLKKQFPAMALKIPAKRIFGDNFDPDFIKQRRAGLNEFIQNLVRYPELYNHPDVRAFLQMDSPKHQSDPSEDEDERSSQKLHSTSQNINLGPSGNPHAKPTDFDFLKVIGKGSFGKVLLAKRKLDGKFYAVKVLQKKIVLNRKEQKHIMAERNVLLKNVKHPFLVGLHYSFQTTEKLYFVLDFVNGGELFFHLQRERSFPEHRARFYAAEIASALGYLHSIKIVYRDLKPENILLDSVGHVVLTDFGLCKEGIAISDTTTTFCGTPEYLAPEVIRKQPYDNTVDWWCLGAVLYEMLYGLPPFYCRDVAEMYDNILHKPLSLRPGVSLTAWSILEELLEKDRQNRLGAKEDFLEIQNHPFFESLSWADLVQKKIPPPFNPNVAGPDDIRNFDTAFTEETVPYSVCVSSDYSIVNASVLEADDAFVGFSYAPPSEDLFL

Oc1cc(Cl)ccc1Oc1ccc(Cl)cc1Cl  sulfonation rate (human liver; 1 µM): 10 pmol/min/mg protein
CC(=O)OCC(CCn1cnc2cnc(N)nc21)COC(C)=O  oral bioavailability (rat; 4000 mg/kg): 41%
COc1ccc2nc([S@+]([O-])Cc3ncc(C)c(OC)c3C)[nH]c2c1  AUC (Japanese non-obese humans; intravenous bolus, 20 mg racemic omeprazole): 293 ng⋅h/mL
CN1CC(=O)N2[C@H](c3ccc4c(c3)OCO4)c3[nH]c4ccccc4c3C[C@@H]2C1=O  terminal half-life (rat; oral, 1 mg/kg): 1.28 ± 0.462 h
CCC(CC)C(=O)O  EC10 (small eyes; zebrafish embryo; nominal concentration): 1000 µM
[H]/N=C(/N)N[C@H]1[C@H](O)[C@@H](O)[C@H](O[C@@H]2O[C@@H](C)[C@](O)(C=O)[C@H]2O[C@@H]2O[C@@H](CO)[C@H](O)[C@@H](O)[C@@H]2NC)[C@@H](N/C(N)=N\[H])[C@@H]1O  renal clearance (human; median, range): 0.47 mL/min/kg
Nc1ccn([C@@H]2CS[C@H](CO)O2)c(=O)n1  oral bioavailability (rat; 5 mg/kg): 80%
c1ccc2c(c1)c1cccc3ccc4cccc2c4c31  logKow (slow stirring): 6.58
CC(C)=CCC/C(C)=C/CC/C(C)=C/CC[C@@](C)(O)CCC1=C(C)C(=O)C(C)=C(C)C1=O  clinical tolerability (human, Friedreich's ataxia; concentration not given): not toxic
O=C(O[C@@H]1Cc2c(O)cc(O)cc2O[C@@H]1c1cc(O)c(O)c(O)c1)c1cc(O)c(O)c(O)c1  stability (cell culture medium; rapid autoxidation): unstable
OCc1cc(C(O)CNCCCCCCOCCCCc2ccccc2)ccc1O (stereo not drawn)  lung deposited fraction (human; inhaled): 0.2
COc1cc(N2CCC(N3CCN(C)CC3)CC2)ccc1Nc1ncc(Cl)c(Nc2ccccc2P(C)(C)=O)n1  Tmax at steady state (patients with cancer, plasma; median): 2.1 h
CCCC(C)(C)C(=O)O  EC10 (pericardial and yolk oedema; zebrafish embryo; nominal concentration): 426 µM
CN(C)C(=O)c1cc2cnc(Nc3ccc(N4CCNCC4)cn3)nc2n1C1CCCC1  oral bioavailability (rat; dose not given): 37%
CC(C)(c1ccc(O)cc1)c1ccc(O)cc1  uptake (HPLC-MS; zebrafish embryos; waterborne, 1 nM, from 8 to 58 hpf): 0.02 µg/kg
CNC(C)C1CCC(N)C(OC2C(N)CC(N)C(OC3OCC(C)(O)C(NC)C3O)C2O)O1 (stereo not drawn)  MIC (Acinetobacter pittii; clinical isolate RKI-No_588/16): ≤ 0.5 µg/mL
CC(C)Nc1nc2cc(Cl)c(Cl)cc2n1[C@H]1O[C@@H](CO)[C@H](O)[C@@H]1O  time to steady-state exposure (human CMV transplant recipients; 400 mg twice daily): ≤ 2 days
CCOc1c([C@H](C)n2nc(C)c3c(N)ncnc32)cc(Cl)c(F)c1[C@@H]1CNC(=O)C1  AUC(0-8h) decrease (human; oral, 20 and 30 mg once daily, high-fat meal; relative to: fasted): 26%
CCCC(CCC)C(=O)O  EC10 (scoliosis or lordosis; zebrafish embryo; nominal concentration): 59 µM
C=CC(=O)N1C[C@H](Nc2ncnc3[nH]ccc23)CC[C@@H]1C  variability of steady-state Cmax (healthy humans; dose not given): 38%
CC(C)(C)NCC(O)c1cc(O)cc(O)c1 (stereo not drawn)  Tlast (human, plasma; inhaled): 4 h
N#C[C@@]1(c2ccc3c(N)ncnn23)O[C@H](CO)[C@@H](O)[C@H]1O  AUC(0-inf) (dog; oral, 5 mg/kg, solution, unadjusted NCATS data): 62.9 µM·h
C[C@@H](Oc1ccc(S(C)(=O)=O)cc1C(=O)N1C[C@@H]2C[C@]2(c2cc(C(F)(F)F)on2)C1)C(F)(F)F  bioavailability (human; oral, 25 mg single tablet, with: meal, high-fat, high-calorie; relative to: fasted state): increased
CC(C)(CO)c1cc2cc(NC(=O)C3(c4ccc5c(c4)OC(F)(F)O5)CC3)c(F)cc2n1C[C@@H](O)CO  fraction unbound (microsomal incubation; CYP2C8 Ki): 0.738
COc1cc2c(Oc3ccc4[nH]c(C)cc4c3F)ccnc2cc1OCC1(N)CC1  AUC(0-42 days) (human; 10 mg/day, two cycles): 1550 ± 864 ng·h/mL
CC(O)(P(=O)(O)O)P(=O)(O)OP(=O)(O)OC[C@H]1O[C@@H](n2ccc(N)nc2=O)[C@@H](O)[C@@H]1O (stereo partly drawn)  hydrolysis half-life (human serum; concentration not given, 37 °C): 5.7 h
C[Si]1(C)O[Si](C)(C)O[Si](C)(C)O[Si](C)(C)O[Si](C)(C)O1  log KOA (25 °C): 4.94
COc1cc2ncnc(Nc3ccc(F)c(Cl)c3)c2cc1OCCCN1CCOCC1  reduction in drug exposure (human; dose not given, empty stomach): 34%
CC(C)NCC(O)COc1cccc2ccccc12 (stereo not drawn)  plasma clearance (rat): 76.5 mL/min/kg
CC(C)Cc1ccc(C(C)C(=O)O)cc1 (stereo not drawn)  steady-state concentration (rat, brain): ~3.5 µM
Cc1ccc(NC(=O)c2ccc(CN3CCN(C)CC3)cc2)cc1Nc1nccc(-c2cncc(-c3oncc3C)c2)n1  Cmax (mouse; 50 mg/kg/day, steady state): 2560 ng/mL
CO[C@@H](C)Cn1c(=O)n(C)c2cnc3ccc(-c4cncc(C(C)(C)O)c4)cc3c21  patients with related adverse event (refers to: diarrhea; cancer patients; dose not given, monotherapy): 20.8%
C=C[C@@H]1C[C@]1(NC(=O)[C@@H]1C[C@@H]2CN1C(=O)[C@H](C(C)(C)C)NC(=O)O[C@@H]1C[C@H]1CCCCCc1nc3ccc(OC)cc3nc1O2)C(=O)NS(=O)(=O)C1CC1  fraction of dose recovered in bile (bile duct-cannulated rats; oral, time not given): 28%
CC[C@H](C)CCCCC(=O)N[C@@H](CCN)C(=O)N[C@H](C(=O)N[C@@H](CCN)C(=O)N[C@H]1CCNC(=O)[C@H]([C@@H](C)O)NC(=O)[C@H](CCN)NC(=O)[C@H](CCN)NC(=O)[C@H](CC(C)C)NC(=O)[C@@H](Cc2ccccc2)NC(=O)[C@H](CCN)NC1=O)[C@@H](C)O  urinary recovery median (patients, urine; time not given): 4.04%
C=CC(=O)N1CCC([C@@H]2CCNc3c(C(N)=O)c(-c4ccc(Oc5ccccc5)cc4)nn32)CC1  AUC(0-8h) (human patients; oral, 40 mg once daily, day 1): 274 ± 140 ng·h/mL
Nc1cc(C(F)(F)F)c(-c2nc(N3CCOCC3)nc(N3CCOCC3)n2)cn1  remaining activity (SGK3 (Homo sapiens, UniProt Q96BR1); enzyme activity; 10 µM; relative to: untreated): 89%
C=C1[C@H](CO)[C@@H](O)C[C@@H]1n1cnc2c(=O)[nH]c(N)nc21  oral bioavailability (dog): 91%
C[C@@H](Oc1ccc(S(C)(=O)=O)cc1C(=O)N1C[C@@H]2C[C@]2(c2cc(C(F)(F)F)on2)C1)C(F)(F)F  AUClast ratio (human; 25 mg single, with: rifampicin; relative to: with over without rifampicin): 0.1
CO[C@H]1/C=C/O[C@@]2(C)Oc3c(C)c(O)c4c(O)c(c(/C=N/N5CCN(C)CC5)c(O)c4c3C2=O)NC(=O)/C(C)=C\C=C\[C@H](C)[C@H](O)[C@@H](C)[C@@H](O)[C@@H](C)[C@H](OC(C)=O)[C@@H]1C  victim drug AUC decrease (perpetrator; human; dose not given, with: glyburide as victim drug): 22%
CC(=O)c1c(C)c2cnc(Nc3ccc(N4CCNCC4)cn3)nc2n(C2CCCC2)c1=O  Cmax (male rat; 30 mg/kg): 1260 ng/mL
CC(C)C[C@@H](NC(=O)[C@H](C)NC(=O)CNC(=O)[C@@H](NC=O)C(C)C)C(=O)N[C@@H](C)C(=O)N[C@@H](C(=O)N[C@H](C(=O)N[C@@H](C(=O)N[C@@H](Cc1c[nH]c2ccccc12)C(=O)N[C@H](CC(C)C)C(=O)N[C@@H](Cc1c[nH]c2ccccc12)C(=O)N[C@H](CC(C)C)C(=O)N[C@@H](Cc1c[nH]c2ccccc12)C(=O)N[C@H](CC(C)C)C(=O)N[C@@H](Cc1c[nH]c2ccccc12)C(=O)NCCO)C(C)C)C(C)C)C(C)C  HC10 (hemolysis; rabbit red blood cells): 160 nM
O=C(O)CN1CCN(CC(=O)O)CCN(CC(=O)O)CCN(CC(=O)O)CC1  protonation constant (log) (pH-potentiometry, refers to: logK4H; 0.15 M NaClO4; 25 °C): 4.05
Nc1nc(=O)n([C@@H]2CS[C@H](CO)O2)cc1F  bioavailability (mouse; 100 mg/kg): 79%
CN[C@@H](C)C(=O)N[C@H]1CN(S(=O)(=O)c2cccc(S(=O)(=O)N3CC[C@H]4CC[C@@H](C(=O)NC(c5ccccc5)c5ccccc5)N4C(=O)[C@@H](NC(=O)[C@H](C)NC)C3)c2)CC[C@H]2CC[C@@H](C(=O)NC(c3ccccc3)c3ccccc3)N2C1=O  TEAE decreased appetite incidence (advanced solid tumour patients; dose not given, monotherapy): 13%
CNC(=O)c1ccc(Nc2ncc(C(F)(F)F)c(NCc3nccnc3N(C)S(C)(=O)=O)n2)cc1  patients with increased bilirubin (patients with KRAS mutant NSCLC; dose not given, treatment-emergent, any grade; relative to: patients): 24%
CC(C)n1c(=O)n(C)c2cnc3cc(F)c(-c4ccc(OCCCN5CCCCC5)nc4)cc3c21  Kp,uu (mouse, brain over plasma): 0.04
C[C@@H]1O[C@@H](OC[C@H]2O[C@@H](Oc3c(-c4ccc(O)c(O)c4)oc4cc(O)cc(O)c4c3=O)[C@H](O)[C@@H](O)[C@@H]2O)[C@H](O)[C@H](O)[C@H]1O  dissolution (acidic phosphate buffer): ~4%
O=C([O-])CC[C@H](NC(=O)N[C@@H](CCCCNC(=O)CCCCCCC(=O)NCCCC[C@@H](NC(=O)[C@@H](Cc1ccccc1)NC(=O)[C@@H](Cc1ccc(O)c(I)c1)NC(=O)CC[C@H](C(=O)[O-])N1CCN(CC(=O)[O-])CCN(CC(=O)[O-])CCN(CC(=O)[O-])CC1)C(=O)[O-])C(=O)[O-])C(=O)[O-].[177Lu+3].[H+].[H+].[H+].[H+].[H+]  peak kidney uptake ratio (mouse; relative to: cpd over [177Lu]Lu-PSMA-617): ~40 fold
Cc1ccsc1C(=CCCN1CCC[C@@H](C(=O)O)C1)c1sccc1C  protective index (mouse; i.p., 6 Hz seizure test, 32 mA): 8.6
[11CH3]n1cc(C2=C(c3ccc(Cl)cc3Cl)C(=O)NC2=O)c2ccccc21  initial brain uptake (PET; nonhuman primates): 1.9 SUV
CCCCCCCCCCCCCCCC(=O)N[C@@H](CCC(=O)NCCCC[C@H](NC(=O)[C@H](C)NC(=O)[C@H](C)NC(=O)[C@H](CCC(N)=O)NC(=O)CNC(=O)[C@H](CCC(=O)O)NC(=O)[C@H](CC(C)C)NC(=O)[C@H](Cc1ccc(O)cc1)NC(=O)[C@H](CO)NC(=O)[C@H](CO)NC(=O)[C@@H](NC(=O)[C@H](CC(=O)O)NC(=O)[C@H](CO)NC(=O)[C@@H](NC(=O)[C@H](Cc1ccccc1)NC(=O)[C@@H](NC(=O)CNC(=O)[C@H](CCC(=O)O)NC(=O)[C@H](C)NC(=O)[C@@H](N)Cc1cnc[nH]1)[C@@H](C)O)[C@@H](C)O)C(C)C)C(=O)N[C@@H](CCC(=O)O)C(=O)N[C@@H](Cc1ccccc1)C(=O)N[C@H](C(=O)N[C@@H](C)C(=O)N[C@@H](Cc1c[nH]c2ccccc12)C(=O)N[C@@H](CC(C)C)C(=O)N[C@H](C(=O)N[C@@H](CCCNC(=N)N)C(=O)NCC(=O)N[C@@H](CCCNC(=N)N)C(=O)NCC(=O)O)C(C)C)[C@@H](C)CC)C(=O)O  acute pancreatitis incidence (overweight or obese adults; 3.0 mg): 0.3%
CC(C)(C(=O)O)c1ccc(C(O)CCCN2CCC(C(O)(c3ccccc3)c3ccccc3)CC2)cc1 (stereo not drawn)  AUC(0-6 h) (healthy volunteers; dose not given, normal P-gp activity category): 59.2 to 148 ng·h/mL
CC(=O)c1c(C)c2cnc(Nc3ccc(N4CCNCC4)cn3)nc2n(C2CCCC2)c1=O  grade ≥3 neutropenia incidence (human advanced cancer patients; dose not given, monotherapy): 33%
CO[C@]1(C(=O)N[C@@H](C)c2ccc(-n3cc(F)cn3)nc2)CC[C@H](c2nc(C)cc(Nc3cc(C)[nH]n3)n2)CC1  metabolites by oxidation and glucuronidation (healthy human; relative to: radioactivity): ~5%
Cc1ccc(C)c(OCCCC(C)(C)C(=O)O)c1  urinary excretion as glucuronide conjugates (urine; concentration not given): ~70%
CN(C)C(=N)N=C(N)N  rate constant k13 (healthy human subjects): 0.0874 min⁻¹
Cc1cc(-c2nccc3c2ccn3CC(=O)Nc2ccc(-c3cnccn3)cn2)ccn1  dose with kidney tubular dilatation (rat): 60 mg/kg/day
